Published values of several laboratories.
Every numbered part comes from another study and shows a few of its results, in no order. Changes are numbered by the printed parent chain.

Sample 1 — technique: DHFR PCA, deep sequencing; sample: yeast; together with: (+)-ABA 0.11 µM; baseline: wild-type fitted maximum; direction: higher = stronger binding
Target: ABI1, truncated, D143A, DHFR fusion (Arabidopsis thaliana)
Setting: methotrexate growth selection, single substitutions
Parent: PYL1, truncated, DHFR fusion (Arabidopsis thaliana); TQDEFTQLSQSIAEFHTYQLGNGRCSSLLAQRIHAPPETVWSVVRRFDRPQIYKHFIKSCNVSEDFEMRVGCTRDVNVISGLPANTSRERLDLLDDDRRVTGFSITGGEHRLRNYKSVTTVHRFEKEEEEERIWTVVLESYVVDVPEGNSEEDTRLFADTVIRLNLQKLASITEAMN
`L166S`: “relative binding score” -1.64%.
`Y141N`: “relative binding score” 2.4%.
`D144Y`: “relative binding score” -14.4%.
`C72A`: “relative binding score” 66.1%.

Sample 2 — technique: RNA Bind-n-Seq; form: RNA; sample: in vitro; concentration: 365 nM; baseline: no-protein control; direction: higher = stronger binding
Target: RNA binding protein fox-1 homolog 2, RRM domain, GST-SBP tag (RBFOX2, Homo sapiens, UniProt O43251-10, residues 100-194)
Setting: natural RNA segment, single round, ends assumed
All sequences stand within: GGGAGUUCUACAGUCCGACGAUC … UGGAAUUCUCGGGUGCCAA
Target sequence (chain): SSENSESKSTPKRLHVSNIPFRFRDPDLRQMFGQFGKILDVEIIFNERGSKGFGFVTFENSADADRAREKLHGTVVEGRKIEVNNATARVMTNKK
Under “RBNS enrichment (R)”, `CAAAAUAUAGUUUUAUCAUGUUAGGUGUAAUUAUGAUUUGAUUAAAUAUAUAAUGCAUUUGCAGUUGUACAUGGGCUAGUUAUAUCAUUUUAGGUGUAAUUAUGACCUGG` is recorded as 0.433.
Under “RBNS enrichment (R)”, `AACCUAUGUUUAACCAAUCUUUGCACCAAAGGACUUUUUCACCAAUUUAUUUUGUUAUUCUUCCAAAUAUUAAGUGAUUUCUAAAAGGUAAAGGGUGACCUUUUGUUUUU` is recorded as 0.505.
Under “RBNS enrichment (R)”, `UCUAGAGGCCGCGGCAGAAGGAGCUCUGUGAGUCCAAGGCCAGCCUGUUCUACAUAGUGAGUUCCAGGCCAGCCAAGACUACAUAGAGCAAUAAAGCCUGGUCUUUCUGU` is recorded as 0.222.
For `CCCAUUCCACAGGAACCCUAUUCCUACCCCCACCCCUGCCCACAAAUGCCACUGUGAUCCACAGCUGAAGUUGUUUCUAAUUGCCUAAAGGCAGUCUCUGUGUCUGGAGC`, “RBNS enrichment (R)” read 0.479.
`UUAGAUCCUGAAAAUGAAAGUGAAGAAGAAUGAGACAGCAAAGCAAGCCGGUCAAACUAUAUAAACUCUGGCUCACCUUGCCCAGUGGUGAGGGCUGCCUCUGUGCCAGG`: “RBNS enrichment (R)” 1.
Under “RBNS enrichment (R)”, `CAGGGCCACAGCUGCCACCUGCCAGCCUCUGGAGCCACCACCAUUUGGGUCUCCUCAGGCCCCCGGGCCCACCUGCCCUGAAGGCAGCAGCAAGUUUCUUCUGCAGCCCU` is recorded as 0.267.
For `CGACUUGGGGAAAUAAAUUUCCCACCUCGUCGGCCCCAGCUCUGUUUCUGCCACUCCUGUCCAAGCCCAAAGGACCUACACUAAAGAAAGCAGGAUGGGGGUGGGGGACC`, “RBNS enrichment (R)” read 0.257.
For `CAUGCACAUUGCUUUGGAGUCAGUAUUCAGCUGUAAGUGUAGUAUUGUUUUAUGGCUGAAAUAGAAAGCUAAUGAAGAGGCCUACCUGGAUCCAGAUUUUAUGUUAACAU`, “RBNS enrichment (R)” read 1.8.

Sample 3 — target: CCND3, cyclin fold, Cln2 fusion (human); technique: yeast growth competition, sequencing; sample: yeast; setting: weak parent motif; baseline: not given; direction: higher = stronger binding
Parent: CDKN1B docking peptide (human); PSACRNLFGPVDH
Under “normalised enrichment score”, `PSACRNLFTPVDH [G9T]` is recorded as 0.122.
For `PKACRNLFGPVDH [S2K]`, “normalised enrichment score” read 0.141.
`PSACMNLFGPVDH [R5M]` — result for “normalised enrichment score”: 0.0574.
`PFACRNLFGPVDH [S2F]`: “normalised enrichment score” 0.0695.
`PSGCRNLFGPVDH [A3G]`: “normalised enrichment score” 0.0989.
Under “normalised enrichment score”, `PSACRNWFGPVDH [L7W]` is recorded as 0.0853.
Under “normalised enrichment score”, `PSACRNLFGPVDT [H13T]` is recorded as 0.079.
Under “normalised enrichment score”, `PSACRNLFGPVFH [D12F]` is recorded as 0.0852.

Single results of other studies
With `PhoQ, residues 284 288 289 292 302 303 SSCCRF` the fold induction was 12.5 (PhoP, residues 12 14 15 18 19 IQSYL (Escherichia coli, UniProt P23836); Sort-seq, item: YFP reporter; E. coli; PhoQ-PhoP variant library, together with: 10 µM Mg2+; baseline: high Mg2+ state, higher = stronger signaling).

Repeated from above (sample 3):
For `PKACRNLFGPVDH [S2K]`, “normalised enrichment score” read 0.141.
`PSACMNLFGPVDH [R5M]` — result for “normalised enrichment score”: 0.0574.
`PFACRNLFGPVDH [S2F]`: “normalised enrichment score” 0.0695.
